Published values collected from several papers.
Compare with care: the assays were run in different laboratories. Numbers after ± are the reported error.
PTPN1: Tyrosine-protein phosphatase non-receptor type 1 (PTPN1, Homo sapiens, UniProt P18031)
FURIN: Furin (FURIN, Homo sapiens, UniProt P09958)
Receptor-type tyrosine-protein phosphatase alpha residues 224-802: Receptor-type tyrosine-protein phosphatase alpha, residues 224-802 (Homo sapiens, UniProt P18433)

Amino acid sequences for entries named in this document (tags omitted). Residues count along the entry.
UniProt P18031, 1-321 limits assumed: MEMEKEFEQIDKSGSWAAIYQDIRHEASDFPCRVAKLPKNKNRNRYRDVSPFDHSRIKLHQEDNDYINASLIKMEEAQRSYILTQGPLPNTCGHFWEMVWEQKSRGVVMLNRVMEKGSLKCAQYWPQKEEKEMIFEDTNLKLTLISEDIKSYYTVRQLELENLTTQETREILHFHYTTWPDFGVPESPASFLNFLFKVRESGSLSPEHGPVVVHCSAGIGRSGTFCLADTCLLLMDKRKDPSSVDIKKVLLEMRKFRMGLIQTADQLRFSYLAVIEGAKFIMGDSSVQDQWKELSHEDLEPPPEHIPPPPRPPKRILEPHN
UniProt P18031, whole entry: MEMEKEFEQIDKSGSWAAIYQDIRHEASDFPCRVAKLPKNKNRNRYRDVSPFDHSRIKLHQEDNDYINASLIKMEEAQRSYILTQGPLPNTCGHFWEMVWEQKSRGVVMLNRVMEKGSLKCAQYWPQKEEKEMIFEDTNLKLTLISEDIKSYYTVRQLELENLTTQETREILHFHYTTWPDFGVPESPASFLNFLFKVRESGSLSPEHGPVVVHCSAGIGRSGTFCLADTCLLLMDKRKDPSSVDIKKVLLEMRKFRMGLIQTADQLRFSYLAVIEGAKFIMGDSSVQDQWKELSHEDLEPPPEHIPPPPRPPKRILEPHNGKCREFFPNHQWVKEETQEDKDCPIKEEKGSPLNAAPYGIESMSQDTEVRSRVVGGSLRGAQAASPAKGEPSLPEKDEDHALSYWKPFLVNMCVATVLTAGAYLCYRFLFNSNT
UniProt P09958, whole entry, looked up: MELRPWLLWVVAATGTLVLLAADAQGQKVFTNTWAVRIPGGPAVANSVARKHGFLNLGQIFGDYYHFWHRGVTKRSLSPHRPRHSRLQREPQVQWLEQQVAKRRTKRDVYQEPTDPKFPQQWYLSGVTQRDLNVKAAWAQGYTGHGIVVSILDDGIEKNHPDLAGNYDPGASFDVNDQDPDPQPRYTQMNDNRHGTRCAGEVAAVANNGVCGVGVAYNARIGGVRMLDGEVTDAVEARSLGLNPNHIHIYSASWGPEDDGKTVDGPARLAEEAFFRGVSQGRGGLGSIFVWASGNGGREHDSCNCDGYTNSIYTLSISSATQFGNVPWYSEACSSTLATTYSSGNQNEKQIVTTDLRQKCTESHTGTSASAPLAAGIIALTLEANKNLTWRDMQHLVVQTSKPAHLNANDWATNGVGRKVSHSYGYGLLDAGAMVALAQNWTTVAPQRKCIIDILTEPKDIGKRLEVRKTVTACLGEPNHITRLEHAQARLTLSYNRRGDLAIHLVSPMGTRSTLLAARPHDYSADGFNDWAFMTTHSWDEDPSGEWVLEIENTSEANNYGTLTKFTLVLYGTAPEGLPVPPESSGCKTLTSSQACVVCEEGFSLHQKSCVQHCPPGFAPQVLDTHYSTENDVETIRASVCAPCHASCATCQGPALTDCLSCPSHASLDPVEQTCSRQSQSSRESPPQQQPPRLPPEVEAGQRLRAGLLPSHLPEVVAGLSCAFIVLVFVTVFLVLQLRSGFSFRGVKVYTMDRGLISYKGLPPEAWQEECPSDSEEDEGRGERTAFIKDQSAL
UniProt P18433, 224-802 limits assumed: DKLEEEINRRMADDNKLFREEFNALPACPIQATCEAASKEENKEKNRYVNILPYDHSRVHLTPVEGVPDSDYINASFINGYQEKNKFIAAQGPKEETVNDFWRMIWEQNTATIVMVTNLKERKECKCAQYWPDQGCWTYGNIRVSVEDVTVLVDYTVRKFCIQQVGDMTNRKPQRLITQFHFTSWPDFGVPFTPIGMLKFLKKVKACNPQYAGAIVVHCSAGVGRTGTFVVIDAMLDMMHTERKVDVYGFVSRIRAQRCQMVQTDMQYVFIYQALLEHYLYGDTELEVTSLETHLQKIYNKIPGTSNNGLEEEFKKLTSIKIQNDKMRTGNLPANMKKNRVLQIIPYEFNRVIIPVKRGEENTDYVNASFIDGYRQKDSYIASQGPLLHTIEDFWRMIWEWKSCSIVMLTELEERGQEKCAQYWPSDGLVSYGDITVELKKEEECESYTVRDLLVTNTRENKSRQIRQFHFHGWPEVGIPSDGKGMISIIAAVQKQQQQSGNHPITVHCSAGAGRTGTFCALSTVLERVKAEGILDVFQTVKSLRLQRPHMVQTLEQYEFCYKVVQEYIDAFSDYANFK
UniProt P04293, whole entry: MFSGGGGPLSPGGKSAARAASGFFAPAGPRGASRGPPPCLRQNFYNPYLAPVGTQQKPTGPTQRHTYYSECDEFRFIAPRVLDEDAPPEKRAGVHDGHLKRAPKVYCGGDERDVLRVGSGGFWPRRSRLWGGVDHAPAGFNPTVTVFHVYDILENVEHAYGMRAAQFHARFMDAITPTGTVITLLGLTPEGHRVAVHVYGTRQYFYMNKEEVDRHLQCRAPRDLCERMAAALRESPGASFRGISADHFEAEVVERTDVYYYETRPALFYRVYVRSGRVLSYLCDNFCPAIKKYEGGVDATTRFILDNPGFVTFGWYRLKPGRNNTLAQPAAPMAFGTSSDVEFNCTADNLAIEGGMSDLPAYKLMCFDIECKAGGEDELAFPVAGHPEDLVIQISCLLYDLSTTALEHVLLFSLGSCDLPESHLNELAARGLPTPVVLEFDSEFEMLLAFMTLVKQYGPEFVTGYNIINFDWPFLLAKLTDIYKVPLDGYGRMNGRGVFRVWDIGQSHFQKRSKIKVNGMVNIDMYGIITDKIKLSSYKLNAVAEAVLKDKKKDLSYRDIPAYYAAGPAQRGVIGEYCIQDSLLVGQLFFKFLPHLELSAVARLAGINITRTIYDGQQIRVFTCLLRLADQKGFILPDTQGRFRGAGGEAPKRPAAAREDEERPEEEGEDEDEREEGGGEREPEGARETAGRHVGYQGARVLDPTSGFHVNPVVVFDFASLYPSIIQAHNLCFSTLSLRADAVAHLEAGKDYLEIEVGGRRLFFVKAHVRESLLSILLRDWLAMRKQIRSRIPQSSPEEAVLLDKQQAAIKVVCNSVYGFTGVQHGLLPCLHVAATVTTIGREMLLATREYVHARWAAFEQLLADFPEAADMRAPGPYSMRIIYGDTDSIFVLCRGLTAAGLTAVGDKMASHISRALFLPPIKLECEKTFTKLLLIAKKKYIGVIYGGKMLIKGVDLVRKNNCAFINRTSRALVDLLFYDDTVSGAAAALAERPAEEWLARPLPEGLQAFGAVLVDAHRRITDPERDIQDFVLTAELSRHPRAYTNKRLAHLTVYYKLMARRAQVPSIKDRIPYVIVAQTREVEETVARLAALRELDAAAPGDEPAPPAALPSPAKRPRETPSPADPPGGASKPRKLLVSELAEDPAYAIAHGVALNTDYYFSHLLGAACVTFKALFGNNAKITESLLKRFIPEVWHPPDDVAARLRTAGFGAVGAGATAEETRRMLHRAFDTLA
UniProt P17706, whole entry: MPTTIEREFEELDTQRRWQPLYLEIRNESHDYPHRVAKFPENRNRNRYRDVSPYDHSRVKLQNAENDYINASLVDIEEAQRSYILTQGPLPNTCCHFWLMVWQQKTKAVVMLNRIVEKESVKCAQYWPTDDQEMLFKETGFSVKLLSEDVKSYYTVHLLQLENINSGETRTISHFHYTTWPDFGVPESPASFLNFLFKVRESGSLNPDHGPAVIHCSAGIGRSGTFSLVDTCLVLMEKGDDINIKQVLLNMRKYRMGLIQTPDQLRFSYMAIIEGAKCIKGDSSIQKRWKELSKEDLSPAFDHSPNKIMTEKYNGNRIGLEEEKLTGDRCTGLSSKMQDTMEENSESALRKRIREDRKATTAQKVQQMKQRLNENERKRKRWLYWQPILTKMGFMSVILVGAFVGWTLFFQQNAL
UniProt P48025, whole entry: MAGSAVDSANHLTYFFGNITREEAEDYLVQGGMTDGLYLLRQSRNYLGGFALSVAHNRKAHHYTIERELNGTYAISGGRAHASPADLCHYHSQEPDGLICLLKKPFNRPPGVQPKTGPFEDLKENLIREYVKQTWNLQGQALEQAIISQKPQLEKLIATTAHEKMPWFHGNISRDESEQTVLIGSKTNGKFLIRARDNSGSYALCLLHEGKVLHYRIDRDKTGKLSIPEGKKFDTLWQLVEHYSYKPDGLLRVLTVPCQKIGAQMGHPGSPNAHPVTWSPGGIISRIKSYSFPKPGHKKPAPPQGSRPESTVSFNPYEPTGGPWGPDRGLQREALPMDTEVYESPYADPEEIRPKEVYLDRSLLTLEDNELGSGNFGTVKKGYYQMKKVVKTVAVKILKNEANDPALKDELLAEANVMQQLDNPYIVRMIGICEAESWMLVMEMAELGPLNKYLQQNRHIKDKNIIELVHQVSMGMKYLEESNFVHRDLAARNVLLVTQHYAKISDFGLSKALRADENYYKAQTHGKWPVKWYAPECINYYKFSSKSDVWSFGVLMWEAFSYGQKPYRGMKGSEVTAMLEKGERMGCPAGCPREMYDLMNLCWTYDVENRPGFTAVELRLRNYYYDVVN

Structure (SMILES) = CC[C@H](C)[C@H](NC(=O)CNC(=O)[C@H](CCCNC(=N)N)NC(=O)[C@@H]1CCCN1C(=O)[C@H](CC(=O)O)NC(C)=O)C(=O)N[C@@H](Cc1ccc(OP(=O)(O)O)cc1)C(=O)N[C@@H](CC(=O)O)C(=O)N[C@@H](CCC(N)=O)C(=O)N[C@H](C(=O)N[C@@H](C)C(=O)NCC(N)=O)C(C)C; target or system = PTPN1; assay = substrate; conditions = pH 7.4, catalytic domain; endpoint = kcat; result = 27 ± 1 s⁻¹
Structure (SMILES) = Cc1cn([C@@H]2CC[C@H](OC(C(=O)O)P(=O)(O)O)C2)c(=O)[nH]c1=O (relative stereo); target or system = DNA polymerase catalytic subunit (Herpes simplex virus, UniProt P04293); assay = enzyme activity, inhibitor; conditions = added: activated calf thymus DNA; endpoint = IC50; result = 26 ± 20 µM
Structure (SMILES) = CC[C@H](C)[C@H](NC(=O)[C@H](CO)NC(=O)[C@H](CCCNC(=N)N)NC(=O)[C@H](CCCNC(=N)N)NC(=O)[C@H](Cc1ccccc1)NC(=O)[C@H](CCCNC(=N)N)NC(=O)[C@H](CCCNC(=N)N)NC(=O)[C@@H](NC(=O)c1ccccc1N)[C@@H](C)O)C(=O)N[C@H](C(=O)N[C@@H](CCC(=O)O)C(=O)N[C@@H](CCC(N)=O)C(=O)NCCNc1ccc([N+](=O)[O-])cc1[N+](=O)[O-])[C@@H](C)O; target or system = FURIN; assay = substrate; conditions = pH 7; endpoint = kcat; result = 19.5 s⁻¹
Structure (SMILES) = CC(=O)N[C@@H](CCC(=O)O)C(=O)N[C@@H](CCC(=O)O)C(=O)N[C@@H](CC(=O)O)C(=O)N[C@@H](CC(N)=O)C(=O)N[C@@H](C)C(=O)N[C@@H](Cc1c[nH]c2ccccc12)C(=O)N[C@@H](Cc1ccc(OP(=O)(O)O)cc1)C(=O)N[C@@H](C)C(=O)N[C@@H](C)C(N)=O; target or system = PTPN1; assay = substrate; conditions = pH 7.4, catalytic domain; endpoint = kcat; result = 27 ± 1 s⁻¹
Structure (SMILES) = CC[C@H](C)[C@H](NC(=O)[C@H](CCCNC(=N)N)NC(=O)[C@H](CCCNC(=N)N)NC(C)=O)C(=O)N[C@@H](CO)C(=O)N[C@H](C(=O)N[C@@H](Cc1ccc(OP(=O)(O)O)cc1)C(=O)N[C@@H](C)C(=O)N[C@@H](C)C(N)=O)[C@@H](C)O; target or system = Receptor-type tyrosine-protein phosphatase alpha residues 224-802; assay = phosphatase activity, substrate; conditions = pH 7.4, added: phosphotyrosine peptide; endpoint = kcat; result = 49 ± 3 s⁻¹
Structure (SMILES) = CC(C)C[C@H](NC(=O)[C@H](CCC(=O)O)NC(=O)[C@H](CCCNC(=N)N)NC(=O)[C@H](CCCCN)NC(=O)[C@H](CCCNC(=N)N)NC(=O)[C@H](CCCNC(=N)N)NC(=O)[C@H](CCCCN)NC(=O)[C@H](CCCNC(=N)N)NC(=O)c1ccccc1N)C(=O)N[C@@H](CCC(=O)O)C(=O)N[C@H](C(=O)N[C@@H](CCC(N)=O)C(=O)NCCNc1ccc([N+](=O)[O-])cc1[N+](=O)[O-])[C@@H](C)O; target or system = FURIN; assay = substrate; conditions = pH 7; endpoint = kcat; result = 3 s⁻¹
Structure (SMILES) = CCCC[C@H](NC(=O)[C@H](CCC(N)=O)NC(=O)[C@@H](NC(=O)[C@H](CCC(=O)O)NC(=O)[C@H](CC(=O)O)NC(=O)[C@H](Cc1ccc(OP(=O)(O)O)cc1)NC(=O)[C@H](CC(C)C)NC(=O)[C@@H]1CCCN1C(=O)CNC(=O)[C@H](Cc1c[nH]c2ccccc12)NC(=O)[C@H](C)NC(C)=O)C(C)C)C(N)=O; target or system = PTPN1; assay = substrate; conditions = pH 7.4, catalytic domain; endpoint = kcat; result = 31 ± 1 s⁻¹
Structure (SMILES) = CC(C)C1CCC(N2CCC3(CC2)C(=O)N(CCNS(N)(=O)=O)Cc2ccccc23)CC1 (stereo not drawn); assay = warm water tail withdrawal; system = rhesus monkey; conditions = subcutaneous, 0.03 mg/kg; endpoint = antinociception duration; result = ≤ 6 h
Structure (SMILES) = CC(=O)N[C@@H](Cc1ccc(O)cc1)C(=O)N[C@@H](CC(=O)O)C(=O)N[C@@H](CCC(=O)O)C(=O)N[C@@H](CC(=O)O)C(=O)N[C@@H](Cc1ccccc1)C(=O)N[C@@H](Cc1ccc(OP(=O)(O)O)cc1)C(=O)N[C@@H](CC(=O)O)C(=O)N[C@@H](Cc1ccc(O)cc1)C(=O)N[C@@H](CCC(=O)O)C(=O)N[C@@H](Cc1ccccc1)C(N)=O; target or system = PTPN1; assay = substrate; conditions = pH 7.4, catalytic domain; endpoint = kcat; result = 21 ± 0.5 s⁻¹
Structure (SMILES) = O=C(CSc1nccn1C1CCCCC1)Nc1cc(C(F)(F)F)ccc1Cl; target or system = Plasmodium falciparum; assay = parasite growth, SYBR Green; system = 3D7 DHODH E182D; conditions = 72 h; endpoint = EC50; result = 1.44 ± 0.39 µM
Structure (SMILES) = C[C@H](NC(=O)[C@H](CCC(N)=O)NC(=O)[C@H](CCCNC(=N)N)NC(=O)[C@H](CCCCN)NC(=O)[C@H](CCC(=O)O)NC(=O)[C@H](CCCNC(=N)N)NC(=O)[C@H](CCCCN)NC(=O)[C@H](Cc1c[nH]cn1)NC(=O)c1ccccc1N)C(=O)N[C@@H](CCCCN)C(=O)N[C@@H](Cc1c[nH]cn1)C(=O)N[C@@H](CCC(N)=O)C(=O)NCCNc1ccc([N+](=O)[O-])cc1[N+](=O)[O-]; target or system = FURIN; assay = substrate; conditions = pH 7; endpoint = kcat; result = 3.6 s⁻¹
Structure (SMILES) = CC(=O)N[C@@H](C)C(=O)N[C@@H](C)C(=O)N[C@@H](Cc1ccc(OP(=O)(O)O)cc1)C(=O)N[C@@H](C)C(=O)N[C@@H](C)C(=O)N[C@@H](C)C(=O)N[C@@H](CC(=O)O)C(=O)N[C@@H](CC(=O)O)C(N)=O; target or system = PTPN1; assay = substrate; conditions = pH 7.4, catalytic domain; endpoint = kcat; result = 29 ± 1 s⁻¹
Structure (SMILES) = Cc1nn(-c2ccc(Cl)cc2)c2c1C(c1cccc(Cl)c1Cl)C(C#N)=C(N)O2 (stereo not drawn); target or system = Vero E6; conditions = 0.4 µM; endpoint = viability; result = 89.4%
Structure (SMILES) = CC(C)C[C@H](NC(=O)[C@H](CC(N)=O)NC(=O)[C@@H](N)CC(=O)O)C(=O)N[C@@H](Cc1ccc(O)cc1)C(=O)N[C@@H](Cc1ccc(OP(=O)(O)O)cc1)C(=O)N[C@@H](Cc1c[nH]c2ccccc12)C(=O)N[C@@H](CC(=O)O)C(N)=O; target or system = PTPN1; assay = enzyme activity, substrate; conditions = pH 7.4; endpoint = kcat; result = 32 ± 1 s⁻¹
Structure (SMILES) = CCCC[C@H](NC(=O)[C@H](Cc1ccccc1)NC(C)=O)C(=O)NCC(=O)N[C@@H](C)C(=O)N[C@@H](Cc1cc(=O)oc2cc(OP(=O)(O)O)ccc12)C(=O)N[C@@H](CCC(N)=O)C(=O)N[C@@H](CC(C)C)C(=O)N[C@@H](CCC(=O)O)C(=O)N[C@@H](CCC(=O)O)C(N)=O; target or system = Tyrosine-protein phosphatase non-receptor type 2 (PTPN2, Homo sapiens, UniProt P17706); assay = peptide hydrolysis, substrate; endpoint = kcat; result = 160 ± 30 s⁻¹
Structure (SMILES) = Cc1nn(-c2ccc(Cl)cc2)c2c1C(c1ccc([N+](=O)[O-])cc1)C(C#N)=C(N)O2 (stereo not drawn); target or system = Vero E6; conditions = 1.6 µM; endpoint = viability; result = 74.3%
Structure (SMILES) = N#Cc1c(-c2ccc(Cl)cc2Cl)n(-c2nc(-c3ccc(Cl)cc3)c3c(NC(=O)c4ccccc4)nnc-3[nH]2)[nH]c1=O; target or system = PC-3; assay = SRB; endpoint = CC50; result = > 100 µM
Structure (SMILES) = CC[C@H](C)[C@H](NC(=O)[C@H](CCCNC(=N)N)NC(=O)[C@H](CCCCN)NC(=O)[C@H](CCCNC(=N)N)NC(=O)[C@H](C)NC(C)=O)C(=O)N[C@@H](Cc1ccc(OP(=O)(O)O)cc1)C(=O)N[C@@H](C)C(=O)N[C@@H](C)C(N)=O; target or system = Receptor-type tyrosine-protein phosphatase alpha residues 224-802; assay = phosphatase activity, substrate; conditions = pH 7.4, added: phosphotyrosine peptide; endpoint = kcat; result = 39 ± 1 s⁻¹
Structure (SMILES) = C[C@@H](O)[C@H](NC(=O)[C@H](CO)NC(=O)[C@H](CCCNC(=N)N)NC(=O)[C@H](CCCCN)NC(=O)[C@@H](NC(=O)[C@H](CCCNC(=N)N)NC(=O)[C@H](CC(N)=O)NC(=O)[C@H](Cc1c[nH]cn1)NC(=O)c1ccccc1N)[C@@H](C)O)C(=O)N[C@@H](CC(=O)O)C(=O)NCC(=O)N[C@@H](CCC(N)=O)C(=O)NCCNc1ccc([N+](=O)[O-])cc1[N+](=O)[O-]; target or system = FURIN; assay = substrate; conditions = pH 7; endpoint = kcat; result = 7.6 s⁻¹
Structure (SMILES) = C[C@H](NC(=O)[C@H](C)NC(=O)[C@H](Cc1ccc(OP(=O)(O)O)cc1)NC(=O)[C@H](Cc1ccccc1)NC(=O)[C@H](CCC(=O)O)NC(=O)[C@H](Cc1cc(F)c(O)c(F)c1)NC(=O)[C@H](CCC(=O)O)NC(=O)[C@@H](N)CCCNC(=N)N)C(N)=O; target or system = PTPN1; assay = enzyme activity, substrate; conditions = pH 7.4; endpoint = kcat; result = 44 ± 2 s⁻¹
Structure (SMILES) = NCC(=O)NCC(=O)N[C@@H](CC(=O)O)C(=O)N[C@@H](CCC(=O)O)C(=O)N[C@@H](CCC(=O)O)C(=O)N[C@@H](CC(=O)O)C(=O)N[C@@H](Cc1ccc(O)cc1)C(=O)N[C@@H](CCC(=O)O)C(=O)N[C@@H](CCC(=O)O)C(=O)N1CCC[C@H]1C(=O)N[C@@H](CC(=O)O)C(=O)N[C@@H](CCC(=O)O)C(=O)N1CCC[C@H]1C(=O)NCC(=O)NCC(=O)N[C@@H](CCCCNC(=O)CCCC[C@@H]1SC[C@@H]2NC(=O)N[C@@H]21)C(=O)NCC(=O)NCC(=O)O; target or system = Tyrosine-protein kinase SYK (Mus musculus, UniProt P48025); assay = kinase activity, ELISA fluorescence; conditions = pH 7.2, MnCl2 5 mM, added: ATP 500 µM; endpoint = kcat; result = 3.6 s⁻¹
Structure (SMILES) = Fc1ccc2[nH]cc(CNCC3(N4CCCC4)COC3)c2c1; target or system = A 172; conditions = 30 µM, 48 h; scale = baseline: DMSO; endpoint = viability; result = 96.6%
Structure (SMILES) = CC[C@H](C)[C@H](NC(=O)[C@H](CCCNC(=N)N)NC(=O)[C@@H](NC(=O)[C@H](Cc1c[nH]cn1)NC(=O)c1ccccc1N)C(C)C)C(=O)N[C@@H](CO)C(=O)N[C@@H](CCCNC(=N)N)C(=O)N[C@@H](CO)C(=O)N[C@@H](CC(C)C)C(=O)N1CCC[C@H]1C(=O)N[C@@H](CCC(N)=O)C(=O)N[C@@H](CCC(N)=O)C(=O)NCCNc1ccc([N+](=O)[O-])cc1[N+](=O)[O-]; target or system = FURIN; assay = substrate; conditions = pH 7; endpoint = kcat; result = 3.6 s⁻¹
Structure (SMILES) = CC(=O)N[C@@H](C)C(=O)N[C@@H](C)C(=O)N[C@@H](C)C(=O)N[C@@H](C)C(=O)N[C@@H](C)C(=O)N[C@@H](Cc1ccc(OP(=O)(O)O)cc1)C(=O)N[C@@H](CCCNC(=N)N)C(=O)N[C@@H](Cc1c[nH]cn1)C(=O)N[C@@H](CCCNC(=N)N)C(=O)N[C@@H](CCCNC(=N)N)C(N)=O; target or system = Receptor-type tyrosine-protein phosphatase alpha residues 224-802; assay = phosphatase activity, substrate; conditions = pH 7.4, added: phosphotyrosine peptide; endpoint = kcat; result = 30 ± 2 s⁻¹

A few entries again:
Structure (SMILES) = Cc1nn(-c2ccc(Cl)cc2)c2c1C(c1cccc(Cl)c1Cl)C(C#N)=C(N)O2 (stereo not drawn); target or system = Vero E6; conditions = 0.4 µM; endpoint = viability; result = 89.4%
Structure (SMILES) = CC(C)C[C@H](NC(=O)[C@H](CC(N)=O)NC(=O)[C@@H](N)CC(=O)O)C(=O)N[C@@H](Cc1ccc(O)cc1)C(=O)N[C@@H](Cc1ccc(OP(=O)(O)O)cc1)C(=O)N[C@@H](Cc1c[nH]c2ccccc12)C(=O)N[C@@H](CC(=O)O)C(N)=O; target or system = PTPN1; assay = enzyme activity, substrate; conditions = pH 7.4; endpoint = kcat; result = 32 ± 1 s⁻¹
